Measurements from different studies.
Each numbered part is a random draw from the data of one study; scales do not carry over between parts. Changes are numbered by the printed parent chain.

Study 1
Target: RNA binding protein fox-1 homolog 2, RRM domain, GST-SBP tag (RBFOX2, Homo sapiens, UniProt O43251-10, residues 100-194)
Method: RNA Bind-n-Seq
Molecule type: RNA
Medium: in vitro
Tested at: 365 nM
Notes: natural RNA segment, single round, ends assumed
Relative to: no-protein control
Reading: higher = stronger binding
Constant ends, left off below: GGGAGUUCUACAGUCCGACGAUC … UGGAAUUCUCGGGUGCCAA
Target sequence (chain): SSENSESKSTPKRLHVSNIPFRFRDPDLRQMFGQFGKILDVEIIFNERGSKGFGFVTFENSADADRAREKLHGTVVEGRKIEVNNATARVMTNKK
| Oligonucleotide | RBNS enrichment (R) |
| --- | --- |
| CCUGUCCACAGCCCUAGCUGCCAGCAAUGCUGUCCUCACAGAGGCAUAGUCGCCCCCAGCUGGGUUGUGCUCCACUGUGACGGUGGCCCGGGGGGAGGAUGCCAGCAGCC | 0.23 |
| CCAGCCCUGGCCCGGCUGCCACACCUCUGUUUCCUAGGCUGGGGACCCAGCUUGUCUCUCCUUGUUUCUUCCCACUGCACUGUGGUGCUUCAGUGGCCACCAGCCUCGUC | 0.5 |
| CUCAUGUUUCACAGCGUUCCUGUUUUUUCUCUCCCGCCACCCCCACCGGCAUUUCCUUCUUCCACCAGCUUUAAUGGAACUUUUUUUGGCACUGCUUUGCAUUGGAGUCA | 3.35 |
| AGAGGAAACAGAGCUAGUCAGAUGUGAAUUGUAUCUGUUGUAAUAAACAUGUUAAAACAAACAAAAAUUGUUAUUUUUCUUUUCCUUCGGUCAGUGCACAUUAGCAUUUG | 0.562 |
| UGACAUUGGUGCUCUCUAGAAAUCUCAGCAUGAGCUGCUAUAGAAUACCCUCCCAGCAACAAAACCUAAUCAGUAAGGCCAGCUAGACCCAAUGGCUCAUGCCUGUAAUC | 2.78 |
| CUCAUGACAUCUGUAAAUGCUGCUGUGUCUGGAAAGAAAGUCUUUAAAUCACUGGUGAAAGUGGCAUCAUCAGAUAAUCUCAAUGGCCACUUGUUCUGGCAUUUAUAAAU | 0.367 |
| UUUUUGUAUUUAAUUGACAUGAAUGUAAAGGGGACAGCUCAGGGUUGUUUUGGAGCCUGUUGACUUUGUAUCUCUGCCUGUGAUUUUCUUUUCUAAAUGAAACUCCAUGU | 1.29 |
| GGGGUUCUGCUGGCUCAUACCCUCAGAAGAGCACCUGGGAGUAACCUAGUCAUGGCAAAGAAGAUGUGACACGAGGGACCAGUCCCAGAGCAGCUACAGAAAGGGUGUGA | 0.296 |
| UGGCCAGUUCUUUUGUUUGUGCUUUGUAACAUAGGUACUUGGGAGACCAGCUGCCCUCCUGGCUUUUGGCUUUUUGGUGUCCUUGAAGGAGACCAGUCAUGAGUACCAAG | 0.577 |

Study 2
Target: Interferon regulatory factor 3, full length, phosphomimetic (IRF3, Homo sapiens, UniProt Q14653, residues 1-427, S386D/S396D/S398D/S402D/T404D/S405D)
Method: protein-binding microarray
Molecule type: double-stranded DNA, one strand shown
Medium: in vitro
Tested at: 2540 nM top
Notes: 60-bp whole probe
Together with: salmon DNA 0.4 mg/ml
Relative to: random background probes
Reading: higher = stronger binding
Constant ends, left off below: GCCTAGCAC … GTCTTGATTCGCTTGACGCTGCTG
Residues (chain): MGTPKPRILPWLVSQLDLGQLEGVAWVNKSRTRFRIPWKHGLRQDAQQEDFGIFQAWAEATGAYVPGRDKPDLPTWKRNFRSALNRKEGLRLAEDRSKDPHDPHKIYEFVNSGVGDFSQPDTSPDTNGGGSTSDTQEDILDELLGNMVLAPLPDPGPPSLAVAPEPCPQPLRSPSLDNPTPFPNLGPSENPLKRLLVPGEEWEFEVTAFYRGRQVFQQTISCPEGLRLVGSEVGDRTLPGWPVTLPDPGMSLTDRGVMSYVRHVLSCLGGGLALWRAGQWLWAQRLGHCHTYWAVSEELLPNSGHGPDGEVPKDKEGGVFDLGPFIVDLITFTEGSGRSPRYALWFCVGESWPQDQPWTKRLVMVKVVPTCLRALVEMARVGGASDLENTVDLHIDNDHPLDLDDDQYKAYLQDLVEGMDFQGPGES
| Oligonucleotide | fitted relative affinity [z-score] |
| --- | --- |
| TTAGATCTCGGTTTCGGTTAGTGCTAG | 4.77 |
| AACGGTTTCGGTCTCGGGACGTGCTAG | 8.67 |
| TTAAGTATCGGACTGGGTTAGTGCTAG | 1.38 |
| TCAGTTTTCATTATTGCACTGTGCTAG | 3.63 |
| ATATCTAAAAAGTCTCTGGGAGTGCTA | 0.325 |
| TCAAGTTTCCATTTTCAACTGTGCTAG | 9.09 |
| GACGGACTGCTTCTGCTGACGTGCTAG | -0.544 |
| GACGGACTACTTTTCCTGACGTGCTAG | 0.349 |
| TCATTCTCCTATTTAAGACTGTGCTAG | 4.17 |
| ATCATTCTCACTGCAGCCTTGTGCTAG | 1.16 |
| ACTCTTCTTTTTTTTCTTTAGTGCTAG | 2.14 |
| GACGTTTCCGGTTTCGGGACGTGCTAG | 5.62 |
| TTAAATATCAGTCTCGATTAGTGCTAG | 1.59 |
| TCACCTCTCTCTATTCAACTGTGCTAG | 1.2 |
| GACGTTTTCAGTATCGAGACGTGCTAG | 2.59 |
| TTAGGTTTCTACTATCGGTTAGTGCTA | 1.31 |
| TCACTTTCAGTTTTCCTACTGTGCTAG | 5.72 |
| TTAGGTTTCCTTAACCTTTAGTGCTAG | 4.59 |
| TTAGGTCTCCTTATCCTTCAGTGCTAG | 2.65 |
| TTAGGTATCGGGTAGCGGTTAGTGCTA | 0.499 |
| GACGGCTTCCTTTCCCTGACGTGCTAG | 1.71 |
| GTCGGTATCGGGTTTCGGGACGTGCTA | 3.97 |
| TTAGAACTGAGTTTCGAGTAGTGCTAG | 0.721 |
| TTAGGTCCCGGACTGGGTTAGTGCTAG | -0.431 |
| GAGCCTCTGTTTTGAGCACAGTGCTAG | -0.232 |

Study 3
Target: RING finger protein unkempt homolog, zinc fingers 1-6, SBP tag (UNK, Homo sapiens, UniProt Q9C0B0, residues 30-357)
Sequence of UniProt Q9C0B0 (30-357, looked up): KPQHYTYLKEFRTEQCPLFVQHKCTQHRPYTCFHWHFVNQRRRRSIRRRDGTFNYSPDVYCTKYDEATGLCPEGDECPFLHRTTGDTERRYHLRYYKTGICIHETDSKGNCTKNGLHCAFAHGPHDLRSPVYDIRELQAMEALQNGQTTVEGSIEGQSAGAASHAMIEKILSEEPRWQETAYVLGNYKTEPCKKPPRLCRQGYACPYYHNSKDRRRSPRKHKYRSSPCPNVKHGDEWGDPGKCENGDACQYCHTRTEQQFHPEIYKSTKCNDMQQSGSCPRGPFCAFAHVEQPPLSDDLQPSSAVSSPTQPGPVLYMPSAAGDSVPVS
Method: RNA Bind-n-Seq
Molecule type: RNA
Medium: in vitro
Tested at: 100 nM
Notes: RNA with constant flanks, vertebrate orthologous sites, ends assumed
Relative to: input RNA pool
Reading: higher = stronger binding
Constant ends, left off below: GGGAGUUCUACAGUCCGACGAUC … CAACAGAGGAUUGAGCAUCA
| Oligonucleotide | bound/input enrichment [ratio] |
| --- | --- |
| UGUGCUUUCUUUUUUUUCCUUUGUUUCUUCCUACCUUUAUUUCUUUUUUCUUUUUAUUUGGUAGUUGUUGUUACCACACCAUUUUACGUCUCCUUCACUGAAGGGCUAGAGUUUUAACUU | 1.68 |
| UGGGUUAUUCCUAUUAUUAUCAAGUAGCUGGAAUUGUGAAGGUCGGAGUAGUUAGAUCUUUAGCUUUUAUUCCUUAUUUUUUUGUAUUACUAUCCAUGUGUAUAAAUUAUUGAUCAUGUU | 1.97 |
| UAUUCAUUUGAUUAAAAUUAUUUAGAUAAGAAAUCAUUACUGUUUAGCUUUGCUUUCAGACAGUGUAUCCUAUUAUUUAUCCAUUUUGCAAAAUAUCACUUGUGUGUGGUUUCUUAACAU | 0.557 |
| UACUGUUGUUAAGCACUGUUCCAGACCGUGUCUGAUUUUAGUGUAACCUAGGAGAUUUUAUAGUUUUAUUUUAAUGGAAUCCUGCCUGACGCAGAGCAGUGGGGAGAGCAGUGUCUUCUG | 2.7 |
| CAUGUAGUUUGUUUUUAAUUUCAAGCAAAUCUUAUUGUACUUGAAUGUGCCCUGUUUUGUUAGCACACCUAGACUUGCUGUAACUGUACUCAUGUCCCAGUAUGUACGUUCUUUCUAUGA | 1.25 |
| GGCAACCCAGGGAUUCAGGACUGGUCUGAUAAAUGCCCCCCACAGAUAUGGAACUGGCACUCGGGGUCAGUCCAGACCUUAAUAAACUAUUUUUUUGUAUUUAUUGUUUGAAUUUAUUUU | 0.324 |
| UCAGUCCCCUGGGCCGGGACAGAUUUUUUUUAACGUCUUGAAACUUAAACUCUGUGCUUGUAGGAUACUGUAACCUUUUUGUCUUUUUUUUUUUUUUUUUUUUAAACCUCCACCUCCAGU | 2.31 |
| CAGCAUCCUUUCAUACUGUCUUGGGCCAGGGCCACAGCCGAUAUCUUAUACGACCUGUGUUUCGGACAUUUUUUAAAUCAUUGUAUCCAAGCAUCUCAGAGACAAGUGUGCUUCUUUGCG | 0.674 |
| CACAUCUGGUGAUAUUUGGCCUGGCCUUUCAGCUUAUGAUAAUAGUCCUAGAUCACCCCAUAGUCCUUCACCAAUUGCUACGCCACCUAGUCAGAGUUCAUCUUGCUCUGAUGCGCCCAU | 1.32 |
| CUGUUGUUAAGCACUGUGUUCCAGACCGUGUCUGACUUUAGUGUAACCUAGGAGAUUUUAUAGUUUAUUUUAAUGAAAUCCUGCUUGACGCAGAACAGCGGGGAGAGCAGUGUCUUCUAC | 1.85 |
| UUUUUAAAUUUUUUUUUAUUUAAUUUUUUUCCUUUCAGGGGUAAAGUUUGCUUUACCAAAUAGUGAUUGUAACAAAUUGAUCUGUUUUGGAUGUUGCUAUAGUGACAUGCAGUUCUAUAU | 0.609 |

Study 4
Target: ABI1, truncated, D143A, DHFR fusion (Arabidopsis thaliana)
Method: DHFR PCA, deep sequencing
Medium: yeast
Notes: methotrexate growth selection, single substitutions
Together with: (+)-ABA 4.8 µM
Relative to: wild-type fitted maximum
Reading: higher = stronger binding
Parent: PYL1, truncated, DHFR fusion (Arabidopsis thaliana); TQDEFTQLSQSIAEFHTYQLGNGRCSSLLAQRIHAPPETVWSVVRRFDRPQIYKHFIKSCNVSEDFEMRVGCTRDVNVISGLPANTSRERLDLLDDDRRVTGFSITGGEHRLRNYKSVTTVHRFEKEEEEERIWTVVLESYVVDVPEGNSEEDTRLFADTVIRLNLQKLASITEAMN; partner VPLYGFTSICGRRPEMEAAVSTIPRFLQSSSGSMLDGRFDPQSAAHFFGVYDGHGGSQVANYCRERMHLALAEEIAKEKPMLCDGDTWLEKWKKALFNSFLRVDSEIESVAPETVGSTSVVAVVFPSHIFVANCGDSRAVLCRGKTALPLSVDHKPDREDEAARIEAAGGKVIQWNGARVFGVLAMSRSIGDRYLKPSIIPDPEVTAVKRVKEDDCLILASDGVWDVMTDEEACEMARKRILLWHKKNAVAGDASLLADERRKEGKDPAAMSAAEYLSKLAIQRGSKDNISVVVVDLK
| Change | relative binding score [%] |
| --- | --- |
| G102V | 0.867 |
| F47H | -20.4 |
| R90L | -7.3 |
| T135W | -5.99 |
| Y141H | 3.5 |
| R113H | 76.7 |
| S11C | 72 |
| V76L | 59 |
| V143F | 2.22 |
| E127P | 86 |
| L138W | 0.112 |
| R132P | 92.8 |
| A158I | 109 |
| T120F | -7.01 |
| R98Q | 52.9 |
| R32H | 67.3 |
| V145Y | -9.47 |
| D96T | -9.52 |
| L169P | 10.4 |
| V161P | -3.26 |
| N61F | 68.7 |
| R98S | 22.3 |
| C25L | 23.4 |
| K126L | 78.2 |
| Y53E | 11 |

A few entries again (study 3):
| Oligonucleotide | bound/input enrichment [ratio] |
| --- | --- |
| GGCAACCCAGGGAUUCAGGACUGGUCUGAUAAAUGCCCCCCACAGAUAUGGAACUGGCACUCGGGGUCAGUCCAGACCUUAAUAAACUAUUUUUUUGUAUUUAUUGUUUGAAUUUAUUUU | 0.324 |
| UCAGUCCCCUGGGCCGGGACAGAUUUUUUUUAACGUCUUGAAACUUAAACUCUGUGCUUGUAGGAUACUGUAACCUUUUUGUCUUUUUUUUUUUUUUUUUUUUAAACCUCCACCUCCAGU | 2.31 |
| CAGCAUCCUUUCAUACUGUCUUGGGCCAGGGCCACAGCCGAUAUCUUAUACGACCUGUGUUUCGGACAUUUUUUAAAUCAUUGUAUCCAAGCAUCUCAGAGACAAGUGUGCUUCUUUGCG | 0.674 |
| CACAUCUGGUGAUAUUUGGCCUGGCCUUUCAGCUUAUGAUAAUAGUCCUAGAUCACCCCAUAGUCCUUCACCAAUUGCUACGCCACCUAGUCAGAGUUCAUCUUGCUCUGAUGCGCCCAU | 1.32 |
